Experimental data of several laboratories.
Numbered parts are unrelated; each lists some results of a single study.
Chain of UniProt P51451 (whole entry, looked up): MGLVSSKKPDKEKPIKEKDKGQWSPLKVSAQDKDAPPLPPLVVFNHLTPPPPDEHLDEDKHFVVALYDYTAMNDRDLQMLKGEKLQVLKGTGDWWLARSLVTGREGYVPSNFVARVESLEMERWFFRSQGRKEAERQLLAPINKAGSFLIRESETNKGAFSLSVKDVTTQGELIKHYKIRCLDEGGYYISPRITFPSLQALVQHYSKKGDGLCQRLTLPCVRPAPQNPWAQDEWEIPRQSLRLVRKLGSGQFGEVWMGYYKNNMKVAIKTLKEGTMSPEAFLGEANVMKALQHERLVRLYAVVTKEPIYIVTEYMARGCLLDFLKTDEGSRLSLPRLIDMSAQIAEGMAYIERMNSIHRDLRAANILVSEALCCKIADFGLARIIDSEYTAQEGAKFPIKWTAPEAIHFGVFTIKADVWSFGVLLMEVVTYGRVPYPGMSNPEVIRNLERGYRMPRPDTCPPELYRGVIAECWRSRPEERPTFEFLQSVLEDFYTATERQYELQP
Chain of UniProt Q16832 (whole entry, looked up): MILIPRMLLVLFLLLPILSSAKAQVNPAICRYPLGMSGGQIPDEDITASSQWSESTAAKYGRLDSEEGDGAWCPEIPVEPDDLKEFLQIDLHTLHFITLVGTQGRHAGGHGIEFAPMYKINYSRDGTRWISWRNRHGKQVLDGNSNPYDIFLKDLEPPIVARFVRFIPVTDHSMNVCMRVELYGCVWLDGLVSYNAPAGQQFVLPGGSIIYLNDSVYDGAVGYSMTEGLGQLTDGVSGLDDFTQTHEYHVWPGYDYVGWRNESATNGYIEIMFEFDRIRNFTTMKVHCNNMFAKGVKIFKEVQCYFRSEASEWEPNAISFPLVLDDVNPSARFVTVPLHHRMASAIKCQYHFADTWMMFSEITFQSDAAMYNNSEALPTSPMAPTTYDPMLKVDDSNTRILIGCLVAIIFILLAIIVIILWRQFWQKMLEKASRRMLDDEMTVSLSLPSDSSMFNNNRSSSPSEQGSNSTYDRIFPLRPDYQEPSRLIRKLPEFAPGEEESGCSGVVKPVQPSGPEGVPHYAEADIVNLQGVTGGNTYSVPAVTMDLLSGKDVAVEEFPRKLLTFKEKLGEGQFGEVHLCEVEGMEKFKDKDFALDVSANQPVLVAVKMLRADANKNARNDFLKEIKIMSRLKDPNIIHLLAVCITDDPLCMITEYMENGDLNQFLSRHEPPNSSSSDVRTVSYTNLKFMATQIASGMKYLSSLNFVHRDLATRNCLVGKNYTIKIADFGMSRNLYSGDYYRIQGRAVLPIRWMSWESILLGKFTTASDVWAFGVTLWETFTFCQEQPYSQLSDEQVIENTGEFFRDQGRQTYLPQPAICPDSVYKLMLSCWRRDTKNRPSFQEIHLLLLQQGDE
Chain of UniProt O14965 (whole entry, looked up): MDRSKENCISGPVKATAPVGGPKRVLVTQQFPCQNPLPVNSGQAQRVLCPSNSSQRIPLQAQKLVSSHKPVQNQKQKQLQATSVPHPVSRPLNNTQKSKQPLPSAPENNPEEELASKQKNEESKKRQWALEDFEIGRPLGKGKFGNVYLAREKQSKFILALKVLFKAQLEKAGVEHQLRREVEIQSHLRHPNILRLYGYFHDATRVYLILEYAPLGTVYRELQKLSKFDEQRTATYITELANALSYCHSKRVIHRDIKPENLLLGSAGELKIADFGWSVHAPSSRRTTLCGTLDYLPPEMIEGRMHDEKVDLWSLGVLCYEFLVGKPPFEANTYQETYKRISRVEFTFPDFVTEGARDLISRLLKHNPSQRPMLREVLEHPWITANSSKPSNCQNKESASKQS

Set 1
Target: RNA binding protein fox-1 homolog 2, RRM domain, GST-SBP tag (RBFOX2, Homo sapiens, UniProt O43251-10, residues 100-194)
Technique: RNA Bind-n-Seq
Form: RNA
Matrix: in vitro
Concentration: 365 nM
Notes: natural RNA segment, single round, ends assumed
Baseline: no-protein control
Reading: higher = stronger binding
Residues (chain): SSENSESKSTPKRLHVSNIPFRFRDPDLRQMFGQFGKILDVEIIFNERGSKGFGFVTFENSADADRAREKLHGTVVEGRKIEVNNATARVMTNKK
| Sequence | RBNS enrichment (R) |
| --- | --- |
| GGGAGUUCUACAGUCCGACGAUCCAGCAGAUGCUGGGGUAUGGCCUCAAGACCUUCCCUCUCUCCUGAAGAUGUCUCAACCCUACAAAGACUAAAGUGCGCCAUCCCAGUGCCACAGAAGGCAGAGGGUAGUUUGGAAUUCUCGGGUGCCAA | 0.193 |
| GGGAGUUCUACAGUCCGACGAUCUCUUGGGCAAUAAUGCAUAGGAGUUCUUGAUACCCCUUCAUUGAUUACUGUGUAUCAGUUCUUUGUUAGGCAUGAACGUCUUUAUUAAUCCAUCAUUCUUUUCUUCAUUCUGGAAUUCUCGGGUGCCAA | 0.401 |
| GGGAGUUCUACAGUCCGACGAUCAAUGUCCCUGCGAACCCACAAUCUCUGCCAGCAGAACUGGUUUUGUUCUGAAUAGUACAGAUUGAUGUGAACACAAAGCAUUUUGUGUAAGGAGAACCCCUUUCUUUUAAUGGAAUUCUCGGGUGCCAA | 0.28 |
| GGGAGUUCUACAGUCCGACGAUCUUUGUUGUUGUUGUUUUGUUAGCUUUCCUACUUCCACUGAGUAGCAUUUUGUAGAAUAAAAUUAAUCAAGAACAAAGAGCUCGUGAUGGUUCCUUCCCUGUCGCCACCUUUGGAAUUCUCGGGUGCCAA | 0.322 |
| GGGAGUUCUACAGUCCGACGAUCCUGCCUUCCCCUUCUAAGGAAGAACUGAGUGGGUAAGGGACAGGUGUGUAAAAUCUCCAAAUGGAUGUUACAGCUUUCAGCUUGAACGUUUGUUUCCAGACCUGAUUAAAUGGAAUUCUCGGGUGCCAA | 0.222 |
| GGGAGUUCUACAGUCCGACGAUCAAUGAUGUUAUAGAAUUAUUUUUGAGCAGGAGCAGAAAGAUUAAAUAUGAUCACUUCAUACUUCUAAAUCAGAAAUAGGAAGAUUAAAACCACAGAACAGUUUGUGAUUUUGGAAUUCUCGGGUGCCAA | 0.353 |
| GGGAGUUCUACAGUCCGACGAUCCCCUCCUGGUGCUCUAUCCACUGCAGGGCCAGCCACUCGCCAGGAGGCCACGGGCCACGGGAAGAACCAAGCGGUGCCAGCCACGAGACGUCACCAAGAAAACAUGCAACUGGAAUUCUCGGGUGCCAA | 0.644 |
| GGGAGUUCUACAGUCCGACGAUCCUGAGUGGGGUACGCUAAUUAUACUUUUUGUUGUGGAUAAAAAAUGCUUGUCAAUAGCCUUUUUCUAUCAAGAAAACAAGGAGCUAAUUAUUAAUAACAGUCAUGGCACAUGGAAUUCUCGGGUGCCAA | 0.292 |

Set 2
SMILES: CN(C)C(=O)Cn1cc(-c2nc([C@@](C)(c3ccc(-c4cnc(N)nc4)cc3)C3CC3)no2)cn1
Observed: cell-free assay
Technique: competition with immobilised ligand
Concentration: 1 µM
| target | remaining binding |
| --- | --- |
| Tyrosine-protein kinase Blk (BLK, Homo sapiens, UniProt P51451) | 98% |
| Aurora kinase A (AURKA, Homo sapiens, UniProt O14965) | 73% |
| Discoidin domain-containing receptor 2 (DDR2, Homo sapiens, UniProt Q16832) | 89% |

Set 3
Target: Eukaryotic initiation factor 4A-I (EIF4A1, Homo sapiens, UniProt P60842, residues 1-406, full length assumed)
Chain of UniProt P60842 (whole entry, looked up): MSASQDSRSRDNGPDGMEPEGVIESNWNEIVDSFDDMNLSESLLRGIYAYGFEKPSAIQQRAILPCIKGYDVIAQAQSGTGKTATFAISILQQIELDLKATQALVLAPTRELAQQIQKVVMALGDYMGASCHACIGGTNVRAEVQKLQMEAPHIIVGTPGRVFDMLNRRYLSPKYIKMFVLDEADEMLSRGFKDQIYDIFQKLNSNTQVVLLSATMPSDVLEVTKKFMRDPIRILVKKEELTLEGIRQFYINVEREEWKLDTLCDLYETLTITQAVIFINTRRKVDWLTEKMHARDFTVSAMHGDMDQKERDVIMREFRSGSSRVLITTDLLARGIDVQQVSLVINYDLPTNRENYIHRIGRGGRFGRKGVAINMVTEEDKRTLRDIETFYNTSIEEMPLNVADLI
Technique: RNA Bind-n-Seq
Form: RNA
Matrix: in vitro
Concentration: 15 pmol
Notes: 4-mer, random 30-nt RNA, single round
Added: 3 µM DMDA-PatA, 2 mM AMP-PNP
Baseline: input library
Reading: higher = stronger binding
| Sequence | 4-mer enrichment [fold] |
| --- | --- |
| UAGU | 1.47 |
| UUAG | 1.28 |
| AUUA | 0.933 |
| CAAC | 0.434 |
| GGUU | 1.34 |
| CGGU | 1.19 |
| AUCA | 0.504 |
| GCAG | 0.751 |

Other studies, line by line
| SMILES | matrix | endpoint | result |
| --- | --- | --- | --- |
| CCC[C@H]1NC(=O)CSC[C@@H](C(=O)OCC)N(C)C(=O)[C@H](CC(C)C)NC(=O)[C@H](C)N(C)C(=O)[C@@H](CC(C)C)NC(=O)[C@H](C)N(C)C(=O)[C@H]2CCCN2C(=O)[C@@H](CC(C)C)NC(=O)CN(CCC)C1=O | hydrocarbon/water | logD | 1.51 |

Excerpt of the above (set 3):
| Sequence | 4-mer enrichment [fold] |
| --- | --- |
| AUUA | 0.933 |
| CAAC | 0.434 |
| GGUU | 1.34 |
